Published values of several laboratories.
Compare with care: the assays were run in different laboratories. Several values in a cell are separate wells, animals, samples, runs or records. ± marks the error that the study gave.
UCHL1: Ubiquitin carboxyl-terminal hydrolase isozyme L1 (UCHL1, Homo sapiens, UniProt P09936)
Sequence of UniProt P09936 (whole entry, looked up): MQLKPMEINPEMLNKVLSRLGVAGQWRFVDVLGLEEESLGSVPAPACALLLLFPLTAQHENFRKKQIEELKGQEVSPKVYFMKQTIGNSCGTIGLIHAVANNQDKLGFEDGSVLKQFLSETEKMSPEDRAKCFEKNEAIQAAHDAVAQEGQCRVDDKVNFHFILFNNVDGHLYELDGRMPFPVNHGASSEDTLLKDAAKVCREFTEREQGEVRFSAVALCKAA
Sequence of UniProt Q07794 (whole entry, looked up): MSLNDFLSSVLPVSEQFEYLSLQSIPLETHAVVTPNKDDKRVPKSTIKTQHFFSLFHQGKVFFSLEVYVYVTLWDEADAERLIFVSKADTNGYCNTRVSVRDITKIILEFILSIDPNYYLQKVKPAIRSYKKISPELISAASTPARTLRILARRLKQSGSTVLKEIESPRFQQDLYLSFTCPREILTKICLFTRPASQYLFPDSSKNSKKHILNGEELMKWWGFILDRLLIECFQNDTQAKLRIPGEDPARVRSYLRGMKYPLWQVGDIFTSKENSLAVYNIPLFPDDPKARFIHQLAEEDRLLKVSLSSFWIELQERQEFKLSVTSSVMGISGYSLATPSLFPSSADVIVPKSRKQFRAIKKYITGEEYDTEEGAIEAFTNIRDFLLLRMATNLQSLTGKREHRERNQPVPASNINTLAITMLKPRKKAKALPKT

SMILES | tested on | assay | system | conditions | scale | measurement | result
Cc1ccc([C@@H]2O[C@H](CO)[C@@H](O)[C@H](O)[C@H]2O)cc1Cc1ccc(-c2ccc(F)cc2)s1 |  |  | Japanese type 2 diabetes patients | 100 mg, day 16, 24 h urine collection | reference: baseline | urinary calcium excretion change | 3.54 mg
CCOc1c([C@H](C)n2nc(C)c3c(N)ncnc32)cc(Cl)c(F)c1[C@@H]1CNC(=O)C1 |  |  | previously treated B-cell malignancy patients | oral, up to 15 mg once daily, cycle 1 day 15, within ± except three observations |  | LSM change in PR interval | ≤ 10 ms
COc1cc2c3c(n(CCCN4CCOCC4)c(=O)c2cc1OC)-c1cc2c(cc1C3=O)OCO2 |  |  | beagle dog, male, plasma | intravenous infusion, 10 mg/m^2, 1 h infusion, vehicle 1 |  | CL | 28 ± 9.7 L/h/m²
CN1CCN(c2cccc3c2CCN(C(=O)/C=C/c2c(-n4cnnn4)ccc(Cl)c2F)[C@@H]3C(=O)Nc2ccc(C(=O)O)cc2)C(=O)C1 |  |  | healthy human subjects | intravenous infusion, 20 mg/h, 5 days, study |  | upper respiratory infection subjects | 0%
O=C(CCCn1cnc([N+](=O)[O-])n1)Nc1ccc(F)c(Cl)c1 | Trypanosoma cruzi | reporter translation, Renilla luciferase mRNA translation | cell-free extract | 40 µM | reference: DMSO | inhibition | -3.3%
CCCCOC(=O)N1CCN(C(=O)[C@H](CP(=O)(O)O)NC(=O)c2cc(N3CC[C@H](OC)C3)nc(-c3ccccc3)n2)CC1 |  | item: alanine aminotransferase | human, blood | 8 mg, 24 h |  | change from baseline | -0.8 ± 4.1 U/L
CN[C@@H]1COc2c(S(=O)(=O)NC(=O)Nc3c4c(cc5c3CCC5)CCC4)cnn2C1 |  |  | human, serum | oral, 900 mg twice daily, day 20, added: midazolam |  | ALT | 351 U/L
C[C@@H]1CN(c2c(F)c(N)c3c(=O)c(C(=O)O)cn(C4CC4)c3c2F)C[C@H](C)N1 |  |  | male Hartley guinea pigs, anaesthetized | intravenous, 30 mg/kg group, baseline before infusion |  | mean blood pressure | 40 ± 0.3 mmHg
Cc1c(-c2ccc(N3CCc4cccc(C(=O)Nc5nc6ccccc6s5)c4C3)nc2C(=O)O)cnn1CC12CC3(C)CC(C)(C1)CC(OCCNCC[C@H](O)CO)(C3)C2 |  |  | beagle dog, male, anaesthetised | intravenous infusion, 0.3 mg/kg/min, 120 min | reference: vehicle | QTcV interval change | 15 ms
Cc1cc(Nc2ccc(S(F)(F)(F)(F)F)cc2)n2nc(C(C)(F)F)nc2n1 |  |  | Plasmodium vivax malaria patients | oral, 600 mg |  | adverse event Diarrhoea | 0%
CC[C@H](C)[C@H](NC(=O)CN)C(=O)N[C@@H](CC(C)C)C(=O)N[C@@H](C)C(=O)N[C@@H](C)C(=O)N[C@H](C(=O)N[C@@H](CCCCN)C(=O)N[C@@H](C)C(=O)N[C@H](C(=O)N[C@@H](C)C(=O)N[C@@H](CCCCN)C(=O)N[C@@H](C)C(=O)N[C@@H](C)C(=O)NCC(N)=O)[C@@H](C)CC)[C@@H](C)CC |  | circular dichroism at 222 nm | 30% TFE | 100 µM |  | mean residue ellipticity | -12600 deg cm2/dmol
O=C(CCCN1CCC(O)(c2ccc(Cl)cc2)CC1)c1ccc(F)cc1 |  |  | male Hartley guinea pigs, anaesthetized | intravenous, 1 mg/kg over 10 min, after infusion |  | mean blood pressure | 21 ± 0.2 mmHg
C=CCN1CC(=O)N2[C@@H](Cc3ccc(O)cc3F)C(=O)N(Cc3cccc(N4CC(N5CCN(CC)CC5)C4)n3)C[C@@H]2N1C(=O)NCc1ccccc1 |  | item: Diarrhea | advanced solid tumour patients | oral, 100 mg twice daily, expansion part, grade ≥3 |  | treatment-related adverse events | 0%
CC(C)(C)c1cc(/C=C(\C#N)C(N)=S)cc(C(C)(C)C)c1O | Toxoplasma gondii | parasite growth | HFF, bradyzoite, alkaline-induced |  |  | EC50 | 7.54 µM
CO[C@H]1C[C@@H]2CC[C@@H](C)[C@@](O)(O2)C(=O)C(=O)N2CCCC[C@H]2C(=O)O[C@H]([C@H](C)C[C@@H]2CC[C@@H](OC(=O)NCCOCCOCCOCCOCCOCCOCCOCCOCCC(=O)N3CCc4cc(Cn5nc(-c6ccc7oc(N)nc7c6)c6c(N)ncnc65)ccc4C3)[C@H](OC)C2)C[C@@H](O)[C@H](C)/C=C(\C)[C@@H](O)[C@@H](OC)C(=O)[C@H](C)C[C@H](C)/C=C/C=C/C=C/1C |  |  | mice, plasma | intraperitoneal, 3 mg/kg, weekly dosing |  | unbound AUClast | 53 to 210 nM·h
Cc1cc(-c2nccc3c2ccn3CC(=O)Nc2ccc(-c3cnccn3)cn2)ccn1 |  |  | human | 15 mg once daily, multiple ascending dose |  | subjects with blurred vision | 0%
Cc1cc(Nc2cc3ncccc3c(N[C@@H]3C[C@H]4CC[C@@H](C3)N4CCC#N)n2)n[nH]1 |  |  | healthy human subjects | oral, 1000 mg, 2 weeks, single ascending dose |  | papular rash incidence | 0%
CC(C(=O)NCC(=O)NCC(CNC(=O)CNC(=O)C(C)N1CCN(CC(=O)[O-])CCN(CC(=O)[O-])CCN(CC(=O)[O-])CC1)(CNC(=O)CNC(=O)C(C)N1CCN(CC(=O)[O-])CCN(CC(=O)[O-])CCN(CC(=O)[O-])CC1)CNC(=O)CNC(=O)C(C)N1CCN(CC(=O)[O-])CCN(CC(=O)[O-])CCN(CC(=O)[O-])CC1)N1CCN(CC(=O)[O-])CCN(CC(=O)[O-])CCN(CC(=O)[O-])CC1.[Gd+3].[Gd+3].[Gd+3].[Gd+3] (centres unmarked) |  | ICP-MS | cynomolgus monkey | 8 h, MB study group | reference: dose | cumulative urinary excretion | 84.1%
O=C(Nc1cnccc1Cl)N1CCN(Cc2ccc3c(c2)OC(F)(F)O3)CC1 |  |  | elderly men and women, plasma | oral, 100 mg once daily, day 10, dosing interval 24 h |  | AUC(0-tau) | 9.37 µg·h/mL
O=C(Cc1ccc(-c2cccs2)cc1)Nc1cc(C2CC2)[nH]n1 |  |  |  |  |  | pKa | 3.74
CC/C(=C(\c1ccccc1)c1ccc(OCCN(C)C)cc1)c1ccccc1 |  |  | male Hartley guinea pigs, anaesthetized | intravenous, 10 mg/kg group, baseline before infusion |  | mean blood pressure | 39 ± 0.3 mmHg
C[C@@H](Nc1cc(F)cc(F)c1)c1cc(C(=O)N(C)C)cc2c(=O)cc(N3CCOCC3)oc12 |  | item: M1 metabolite | human | oral, 240 mg, single dose day 1, 5:2 BID regimen |  | AUC(0-12 h) | 3.19 µg·h/mL
COc1cc2[nH]c(C)c(-c3ccccn3)c(=O)c2cc1Cl |  |  | PAMPA | pH 7.4 |  | Papp | 380 nm/s
O=C(Nc1nnc(Cl)s1)c1ccco1 |  |  | sheep erythrocytes | 1 h, pH 7.5 |  | maximum haemolysis | 1.5%
N#Cc1ccc2c(c1)[C@H]1CCCN(C(=O)c3ccc4[nH]cnc4c3)[C@H]1C2 |  |  | human males | 10 mg, day 7 |  | total testosterone level | 12.5 nmol/L

SMILES | tested on | assay | system | conditions | scale | measurement | result
COc1ncc(-c2nc3c(n2C(C)C)[C@H](c2ccc(Cl)cc2)N(c2cc(Cl)cn(C)c2=O)C3=O)c(OC)n1 |  |  | human patients, plasma | oral, 12.5 mg, 0-24 h, high-dose arm, cycle 2 day 1 |  | AUC(0-t) geometric mean | 1.36 µg·h/mL
N#C[C@@]1(c2ccc3c(N)ncnn23)O[C@H](CO)[C@@H](O)[C@H]1O |  |  | male beagle dogs, plasma | oral capsule, 6.5 mg/kg |  | AUMC(0-inf) | 80700 ng·h²/mL
O=C(Nc1nc2cccc(-c3ccc(CN4CCS(=O)(=O)CC4)cc3)n2n1)C1CC1 |  | item: diarrhoea | human rheumatoid arthritis patients | oral, 200 mg once daily, 4 weeks, regardless of relatedness |  | treatment-emergent adverse events | 0%
Cl.[2H]C([2H])([2H])CC(=O)c1cnc(NC(=O)C2CC2)cc1Nc1cccc(-c2ncn(C([2H])([2H])[2H])n2)c1OC |  | geometric mean | human | 20 mg twice daily, day 7, fed, liquid, multiple dose |  | CL/F | 12.8 L/h
S=c1[nH]nc(-c2ccccc2)o1 | Histone acetyltransferase RTT109, with Vps75 (Saccharomyces cerevisiae, UniProt Q07794) | enzyme activity, inhibitor, HTS, CPM-based, dose response |  |  |  | IC50 | 66 ± 4 µM
Cc1c(Br)cc(NC(=O)CS(=O)(=O)O)cc1Br |  |  | CD-1 mice, whole blood | intravenous, 2 mg/kg |  | C0 | 10.6 µM
COc1ccc2c(c1)CN(C(=O)CCN1CCC(Cc3ccccc3)CC1)CC[S@@+]2[O-] |  | telemetry | conscious male beagle dogs | intravenous, 4 mg/kg, 4 h |  | systolic blood pressure | 133 ± 13 mmHg
COc1c(N2C[C@@H]3CCCN[C@@H]3C2)c(F)cc2c(=O)c(C(=O)O)cn(C3CC3)c12 |  |  | male Hartley guinea pigs, anaesthetized | intravenous, 1 mg/kg group, baseline before infusion |  | mean blood pressure | 37 ± 0.3 mmHg
NC1(C(=O)N[C@@H](CCO)c2ccc(Cl)cc2)CCN(c2nc[nH]c3nccc2-3)CC1 |  |  | metastatic CRPC patients | 320 mg b.i.d., grade 3 to 4, treatment-related, added: enzalutamide 160 mg daily |  | incidence of Stomatitis | 0%
CNCc1ccc(-c2[nH]c3cc(F)cc4c3c2CCNC4=O)cc1 |  |  | human patients | oral, 40 mg once daily, grade 500 or higher |  | incidence of any adverse event | 100%
O=C(N[C@H](Cc1c[nH]c2ccccc12)C(=O)Nc1ccncc1)c1ccc(N2CCN(c3ccc(F)cc3F)CC2)cc1F |  |  | Swiss Webster mouse, female, liver | oral, 50 mg/kg, 2 h, 20% HPβCD vehicle |  | concentration | 31.2 µM
C[C@@H]1COCCN1c1cc(C2([S@](C)(=N)=O)CC2)nc(-c2cc[nH]c3nccc2-3)n1 |  |  | Japanese advanced solid tumour patients | oral, 240 mg twice daily, any grade |  | Vomiting incidence | 16.7%
CNC(=O)c1ccc(-c2cnc3ncc(Cc4ccc5ncccc5c4)n3n2)cc1F |  | CTCAE v4.0, any causality | human hepatocellular carcinoma patients | oral, 600 mg twice daily, expansion cohort at RP2D |  | alkaline phosphatase increase incidence (all grades) | 0%
Cc1cc(-c2nnc(N)nc2-c2ccc(F)cc2)cc(Cl)n1 |  | item: rash | IO-naive other solid tumour patients | oral, 100 mg once daily, treatment-related, grade 1 |  | patients with immune-mediated AE | 5.3%
Cn1cncc1[C@@](N)(c1ccc(Cl)cc1)c1ccc2c(c1)c(-c1cccc(Cl)c1)cc(=O)n2C |  |  | human, plasma | 300 mg/m^2/dose, initial cohort, mean | reference: AUC0-inf at 200 mg/m^2/dose | AUC0-inf ratio | 3.5 fold
N#CC(=Cc1cc(F)ccc1F)C(=O)Nc1ccc(Cl)cc1Cl | UCHL1 | covalent, intact protein LC-MS |  | 12.5 µM |  | labelling | 18.1%
COc1ccc(C[C@@H](C)[C@@H](C)Cc2ccc(OC)c(OC)c2)cc1OC |  |  | beagle dog male, plasma | oral, 100 mg/kg/day, day 1, median |  | Tmax | 2 h
CC(C)C(=O)Nc1ccc(C(=O)CCl)cc1 | UCHL1 | covalent, intact protein LC-MS |  | 12.5 µM |  | labelling | 37.9%
CCc1cc(C(=O)NC)c2nccc(N3CCc4c(cc(Cn5ccnc5)cc4-c4cn(C)nc4C(F)(F)F)C3=O)c2c1 |  |  | Sprague Dawley rat | oral, 50 mg/kg once daily, 7 days | reference: vehicle | change in HCT | 1.97%
CCN1/C(=C/C(C)=O)Sc2ccc(F)cc21 |  |  | cynomolgus monkey | oral, 30 mg/kg, 6 h post-dose | reference: pre-dose | systolic blood pressure change | 102 ± 3.8%
CN(C(=O)n1cnc(-c2cccnc2)c1)[C@H]1CC[C@H](O)CC1 |  |  | cynomolgus monkeys, plasma | oral, 1.0 mg/kg |  | AUC(0-t) | 0.108 µg·h/mL
CCO[C@H]1CCN(Cc2c(OC)cc(C)c3[nH]ccc23)[C@H](c2ccc(C(=O)O)cc2)C1 |  |  | human severe hepatic impairment, plasma | oral, 200 mg single dose, median |  | unbound Tmax | 3.5 h
CC(C)[N+](C)(CCOC(=O)C1c2ccccc2Oc2ccccc21)C(C)C |  |  | human, both sexes, whole blood | 5 µM, 120 min |  | remaining compound | 7.73%
C=CC(=O)NC1CCN(c2ncc3ncnc(Nc4ccc(Oc5ccc6c(c5)ncn6C)c(C)c4)c3n2)CC1 |  | item: psychiatric disorders (SOC) | human male | oral, dose not given, CTCAE on-treatment AEs |  | adverse events incidence | 0%
CCC(CC)C(=O)Oc1cccc(C(O)CCN)c1.O=CO (centres unmarked) |  | scotopic ERG | BALB/cJ mice | intraperitoneal, 10 mg/kg, 8 h dark adaptation, added: 10,000 lx photobleach, 10 min |  | ERG a-wave amplitude | 112 µV and 9 µV and 64 µV and 77 µV and 104 µV and 75 µV
